# Results collected from several papers.
# Parts stem from different laboratories: compare values within a part only.

# Block 1
# Target: Histone acetyltransferase KAT6A, winged helix 1, GST fusion (KAT6A, Homo sapiens, UniProt Q92794, residues 1-85)
# Technique: protein binding microarray
# Molecule type: double-stranded DNA, one strand shown
# Medium: in vitro
# Tested at: not given
# Notes: 8-mer, flanks averaged, mean of 2 arrays, mostly near background
# Baseline: not given
# Reading: higher = stronger binding
# Construct (chain): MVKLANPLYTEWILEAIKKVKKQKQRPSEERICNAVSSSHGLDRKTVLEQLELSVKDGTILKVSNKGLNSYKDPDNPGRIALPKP
Strand,E-score
CAGTAGAA,-0.339
CTCATGAC,-0.0317
AATAACGC,0.0878
ACTAGGAT,-0.204
CAGCAGCA,-0.154
GATGGGGA,-0.165
TAAAGAAA,-0.135
CACATTGA,0.107
AACCGAGA,-0.0762
TTATTAAA,-0.0027
AGGGAGGC,-0.0725
AGACTCAG,-0.186
ATAAATCA,-0.243
GGATTACA,-0.171
CGTGAGCC,0.211
GGTGATAA,-0.00311
CGAATTAC,0.00865
CAGCCACA,-0.223
CTAACGGC,0.316

# Block 2
# Target: Centromere-binding protein 1, full length, N-terminal tag (CBF1, Saccharomyces cerevisiae, UniProt P17106, residues 1-351)
# UniProt P17106, sequence (whole entry, looked up): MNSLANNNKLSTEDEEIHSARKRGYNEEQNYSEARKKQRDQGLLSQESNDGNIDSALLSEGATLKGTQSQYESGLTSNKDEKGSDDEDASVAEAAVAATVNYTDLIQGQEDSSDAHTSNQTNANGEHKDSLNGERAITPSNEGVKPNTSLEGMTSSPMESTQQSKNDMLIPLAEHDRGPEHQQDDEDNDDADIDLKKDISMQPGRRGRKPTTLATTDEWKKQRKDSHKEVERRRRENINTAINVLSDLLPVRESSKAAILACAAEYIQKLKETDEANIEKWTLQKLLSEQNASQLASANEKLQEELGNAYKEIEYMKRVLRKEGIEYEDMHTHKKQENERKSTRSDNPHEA
# Technique: protein-binding microarray
# Molecule type: double-stranded DNA, one strand shown
# Medium: in vitro
# Tested at: 0.8 µM
# Notes: whole 60-bp probe, no competitor
# Reading: higher = stronger binding
# Shared flanks, not repeated: … GTCTTGATTCGCTTGACGCTGCTG
Strand,fluorescence intensity
GAAGATAGTTAGCCCCACGATAAAACTTAGCAGTAG,546 a.u.
GAATTTTGAAAACATGATGATATACTAATAATTTAG,557 a.u.
GAACTCACTTTCTGTCACGTGCTCGCATTGCGATAG,20800 a.u.
GAATAACCTAATAATTCCGTGATTTTGATATTTTAG,516 a.u.
GAATGTAGGAAAATAAACGTGTTGCTCTGTCATTAG,538 a.u.
GAAATCAGCTTGATTCACGGGATGTTACTTATCTAG,626 a.u.
GAAATAATATACTAAGTGATGATGATGTGGCAATAG,557 a.u.
GAATTGGCTGGGCGGCATGTGAAGTTTTTGGCCTAG,537 a.u.
CTACCAATTCAGACTCACGAGAAAAAAAACTGTTTC,652 a.u.
GAATGCACAGTGACTCACGTTTTTTTATCAGTCTAG,780 a.u.
CCTAACTACTATACTCACCCCGCATAGCTTCGTACA,507 a.u.
CTACAATAAGAGAACATCGTGAAACAACATAAATTC,565 a.u.
GAAGCCCCGTGATAAAACCTCACGTATGACACATAG,1090 a.u.
GAAAACTTGAACGATTTCACCAGATGTTTGTACTAG,528 a.u.
CTACAGGATCTTGGTCACATATATATATATATATTC,3450 a.u.
GAAGATAGAGATATTCACCTGGTGATTCGGTAGTAG,578 a.u.
CTATGTAAGAACTGTCACGTAGTAACACAATCATTC,608 a.u.
GAACCAGATCTACAGCTGATGAAATGTGGCTGATAG,516 a.u.
CTACTTATTGTGAACATCATGACAAAACGAAATTTC,547 a.u.

# Block 3
# Target: RNA binding protein fox-1 homolog 2, RRM domain, GST-SBP tag (RBFOX2, Homo sapiens, UniProt O43251-10, residues 100-194)
# Technique: RNA Bind-n-Seq
# Molecule type: RNA
# Medium: in vitro
# Tested at: 365 nM
# Notes: natural RNA segment, single round, ends assumed
# Baseline: no-protein control
# Reading: higher = stronger binding
# Shared flanks, not repeated: GGGAGUUCUACAGUCCGACGAUC … UGGAAUUCUCGGGUGCCAA
# Target sequence (chain): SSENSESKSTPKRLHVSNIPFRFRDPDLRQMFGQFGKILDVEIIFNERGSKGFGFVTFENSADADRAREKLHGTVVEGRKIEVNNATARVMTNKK
Strand,RBNS enrichment (R)
CUGCGGCCGGCGAACCCCACGGAGGAGGGCCUGGCCAGCCUGCACAGCGUGCUGUUCCGCAAGCAGCCGUUCCUGUGGCGCGCUGCACUGCUCUACUACACCAUCCACCG,0.623
CUUCAUCUCAGACUCCUAGGGGAAUGAAAGCUGUCUUCUGUGAAUGUGCAAGGGUUUGGCUCGUGUCAUUUGAAAACUCCUGGCUUAUCUAAUGGGACCAGCUUGUGAAG,1.36
AUCCCACUGCAGUGAUGGAUAUGCAUCUUUUACUUCUUGCUCCUUCUGCCCCUGGGUCCAUGUAUCCACCUAGCUCUGGUACCCUCCAGAGGUGCCAUCUCUACCUCUGA,1.41
GUCUCCAUCCUUCCCUCUCCUUUUCUGUCACCUUUCCCCCUAGCUGGCUCCUUUGGACCUACCCCUGUCCUUGCUGACUUGUGUUGCAUUGUAUUCCAAACGUGUUUACA,0.816
GAGAAGCCUUUUGCCUGGAUAGGAGGGGGCUCUCCCAGGCAUAGGCUUGUGGCCACUUGCCCAGCACAACUGUGUUUUGUGGGGCGUCUUUUAGGACUUAGCAGAGCUGA,0.707
AUAGACUCCACAGAGAAUGGUGCUUUGUCCAAGGAAACCUGAGUUUCUGAUUGCCCAGGAGCAGUCAGUAGUGAGGAUACUGAGAAAACUUCCUUCCCAGAGAAAAUGGA,0.333
GGCCUGGCUAGGAGCCCUUCAGGCCUCUCUCUCCUCUGUCCACCCUUGGCCUGUCUCAUCCCUGUGGGUCCCAGCUCAGCUCUGGCCACCCCGGGCUCUCUGCUGUACAU,0.29
GGAAGGGCAGGAAGGAGAGCCUGCUGCAUGGGGUGGGGUAGGGCUGACUAGAAGGGCCAGUCCUGCCUGGCCAGGCAGAUCUGUGCCCCAUGCCUGUCCAGCCUGGGCAG,0.715

# Block 4
# Target: Ras GTPase-activating protein-binding protein 1, RRM domain (G3BP1, Homo sapiens, UniProt Q13283)
# UniProt Q13283, sequence (whole entry, looked up): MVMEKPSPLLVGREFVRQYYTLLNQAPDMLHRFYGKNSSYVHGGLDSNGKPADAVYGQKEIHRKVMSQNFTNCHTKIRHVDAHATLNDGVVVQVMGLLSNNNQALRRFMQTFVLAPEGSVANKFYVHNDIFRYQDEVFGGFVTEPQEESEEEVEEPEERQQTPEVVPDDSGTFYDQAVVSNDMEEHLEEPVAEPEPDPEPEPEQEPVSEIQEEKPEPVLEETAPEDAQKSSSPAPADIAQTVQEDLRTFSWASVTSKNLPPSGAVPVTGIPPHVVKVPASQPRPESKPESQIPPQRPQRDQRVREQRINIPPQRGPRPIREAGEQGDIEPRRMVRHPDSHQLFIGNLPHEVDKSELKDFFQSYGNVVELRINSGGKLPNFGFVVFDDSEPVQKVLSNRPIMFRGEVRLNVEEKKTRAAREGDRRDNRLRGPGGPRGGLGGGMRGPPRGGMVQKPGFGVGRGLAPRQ
# Technique: RNA Bind-n-Seq
# Molecule type: RNA
# Medium: in vitro
# Tested at: 1 µM
# Notes: whole 134-nt RNA, ends assumed
# Together with: 150 mM KCl
# Baseline: input library
# Reading: higher = stronger binding
# Shared flanks, not repeated: GGGAGUUCUACAGUCCGACGAUC … UGGAAUUCUCGGGUGUCAAGG
Strand,log2 enrichment
UCCUGUGCUACACAUCGUAUGUACCGAAUCGGUUUUUUUGGUUUUUUUGGUUUUUUUGGGAAAGUAUUAUGUUACGCCGUUCGGAUCUGC,-0.144
GUCCUGUGCUACACAUCGUAUGUACCGAAUCGGGGUUUUUUUGGGGAAAGGGGUGGGGAAAGUAUUAUGUUACGCCGUUCGGAUCUGCAC,0.565
UGUGCUACACAUCGUAUGUACCGAAUCGGGCCCCCCCGGGGCCCCCCCGGGGCCCCCCCGGGAAAGUAUUAUGUUACGCCGUUCGGAUCU,-0.569
GUCCUGUGCUACACAUCGUAUGUACCGAAUCGGGGUUUGGGGUUUUUUUGGGGUGGGGAAAGUAUUAUGUUACGCCGUUCGGAUCUGCAC,0.839
CAAGUCCUGUGCUACACAUCGUAUGUACCGAAUCGGGAGGGUGGGAAAAAAAGGGAAAGUAUUAUGUUACGCCGUUCGGAUCUGCACUUC,0.539
CUCAAGUCCUGUGCUACACAUCGUAUGUACCGAAUCGGGGAGGGGAGGAGGGGAAAGUAUUAUGUUACGCCGUUCGGAUCUGCACUUCCA,0.252
GCAAGAAGUAAAAACAAAUGGAAAUGCUUCGGAUAGUGGCAGGGGUGGGGGUUGCUAAGGAAAGGGUGGGAUGGGAGUGGGUAAAGAGUU,0.834
AGUCCUGUGCUACACAUCGUAUGUACCGAAUCGGGAGGGAAAAAGGGUUUUUUUGGGAAAGUAUUAUGUUACGCCGUUCGGAUCUGCACU,0.507
CCUGUGCUACACAUCGUAUGUACCGAAUCGGGGAAAAAAAGGGGUUUGGGGAAAAAGGGGAAAGUAUUAUGUUACGCCGUUCGGAUCUGC,0.729
